Measurements pooled from the literature.
A part holds a random share of what one study measured. Values joined by “and” are separate records of one study, mostly repeats; a detail may differ.
UniProt Q16832, sequence (whole entry, looked up): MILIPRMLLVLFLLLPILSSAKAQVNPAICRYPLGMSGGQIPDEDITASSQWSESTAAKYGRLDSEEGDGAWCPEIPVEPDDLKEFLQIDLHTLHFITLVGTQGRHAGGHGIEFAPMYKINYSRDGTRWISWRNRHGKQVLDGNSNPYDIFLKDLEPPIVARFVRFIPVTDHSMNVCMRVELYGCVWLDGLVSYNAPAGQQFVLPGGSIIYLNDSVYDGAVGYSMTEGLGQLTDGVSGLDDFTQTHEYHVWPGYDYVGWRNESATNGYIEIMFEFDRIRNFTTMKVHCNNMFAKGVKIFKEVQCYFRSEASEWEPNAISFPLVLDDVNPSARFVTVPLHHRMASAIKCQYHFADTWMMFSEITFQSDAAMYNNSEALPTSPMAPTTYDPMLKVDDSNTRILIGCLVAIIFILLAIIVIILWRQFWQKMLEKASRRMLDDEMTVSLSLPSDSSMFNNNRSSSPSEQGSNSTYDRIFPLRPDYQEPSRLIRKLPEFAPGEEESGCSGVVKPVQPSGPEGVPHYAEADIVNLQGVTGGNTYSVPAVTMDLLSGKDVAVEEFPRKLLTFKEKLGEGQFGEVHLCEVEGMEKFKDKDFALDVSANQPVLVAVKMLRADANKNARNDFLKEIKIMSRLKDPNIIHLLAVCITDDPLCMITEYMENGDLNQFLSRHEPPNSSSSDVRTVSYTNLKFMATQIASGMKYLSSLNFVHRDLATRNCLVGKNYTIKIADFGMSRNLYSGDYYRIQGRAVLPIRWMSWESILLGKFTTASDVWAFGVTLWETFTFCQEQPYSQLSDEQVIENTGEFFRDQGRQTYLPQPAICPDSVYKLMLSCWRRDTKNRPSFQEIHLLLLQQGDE
UniProt Q6P2M8, sequence (whole entry, looked up): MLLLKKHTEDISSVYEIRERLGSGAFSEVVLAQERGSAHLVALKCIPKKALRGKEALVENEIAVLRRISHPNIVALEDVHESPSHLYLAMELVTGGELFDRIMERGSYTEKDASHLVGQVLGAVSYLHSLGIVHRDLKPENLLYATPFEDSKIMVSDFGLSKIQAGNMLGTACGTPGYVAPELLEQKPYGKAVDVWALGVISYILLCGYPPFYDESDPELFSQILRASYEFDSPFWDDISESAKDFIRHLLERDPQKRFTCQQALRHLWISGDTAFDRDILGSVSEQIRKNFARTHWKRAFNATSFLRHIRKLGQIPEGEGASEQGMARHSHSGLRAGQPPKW
UniProt Q16566, sequence (whole entry, looked up): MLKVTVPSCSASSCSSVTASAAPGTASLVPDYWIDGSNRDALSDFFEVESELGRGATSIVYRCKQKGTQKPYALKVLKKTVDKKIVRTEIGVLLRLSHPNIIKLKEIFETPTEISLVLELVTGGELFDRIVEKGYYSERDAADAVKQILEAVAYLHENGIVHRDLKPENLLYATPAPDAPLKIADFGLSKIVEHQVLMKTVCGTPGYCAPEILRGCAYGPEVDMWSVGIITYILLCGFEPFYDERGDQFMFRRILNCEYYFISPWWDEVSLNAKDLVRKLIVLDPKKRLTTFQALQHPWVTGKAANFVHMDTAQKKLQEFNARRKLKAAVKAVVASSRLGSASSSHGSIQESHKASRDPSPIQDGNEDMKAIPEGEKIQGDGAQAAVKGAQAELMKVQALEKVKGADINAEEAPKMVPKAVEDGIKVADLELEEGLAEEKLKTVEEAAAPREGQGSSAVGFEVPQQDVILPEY
UniProt P06493, sequence (whole entry, looked up): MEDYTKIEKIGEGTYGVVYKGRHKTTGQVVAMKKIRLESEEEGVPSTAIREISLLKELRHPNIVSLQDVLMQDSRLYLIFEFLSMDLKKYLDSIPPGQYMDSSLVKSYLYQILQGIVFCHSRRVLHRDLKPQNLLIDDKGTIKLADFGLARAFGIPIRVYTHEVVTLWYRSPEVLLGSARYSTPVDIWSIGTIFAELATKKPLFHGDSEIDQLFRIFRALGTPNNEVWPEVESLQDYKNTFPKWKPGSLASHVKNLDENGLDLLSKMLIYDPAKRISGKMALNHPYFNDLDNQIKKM

Series 1 — read-out: cell-free assay; method: competition with immobilised ligand; concentration: 1 µM
SMILES: CCCCN(CCCC)C(=O)CN1C[C@@H](c2cc(OC)c3c(c2)OCO3)[C@H](C(=O)O)[C@H]1CC(C)(C)CCC
| target | remaining binding [%] |
| --- | --- |
| Cyclin-dependent kinase 18 (CDK18, Homo sapiens, UniProt Q07002) | 92.4 |
| Serine/threonine-protein kinase PLK1 (PLK1, Homo sapiens, UniProt P53350) | 100 |
| Serine/threonine-protein kinase N2 (PKN2, Homo sapiens, UniProt Q16513) | 100 |
| Serine/threonine-protein kinase TAO3 (TAOK3, Homo sapiens, UniProt Q9H2K8) | 67.9 |
| Discoidin domain-containing receptor 2 (DDR2, Homo sapiens, UniProt Q16832) | 99.1 |
| Serine/threonine-protein kinase Chk2 (CHEK2, Homo sapiens, UniProt O96017) | 87.8 |
| Tyrosine-protein kinase ABL1, phosphorylated (ABL1, Homo sapiens, UniProt P00519, H396P) | 100 |

Series 2 — action: inhibitor; concentration: concentration not given; together with: without ssDNA
Target: DNA polymerase theta, helicase domain (POLQ, Homo sapiens, UniProt O75417)
UniProt O75417, sequence (whole entry, looked up): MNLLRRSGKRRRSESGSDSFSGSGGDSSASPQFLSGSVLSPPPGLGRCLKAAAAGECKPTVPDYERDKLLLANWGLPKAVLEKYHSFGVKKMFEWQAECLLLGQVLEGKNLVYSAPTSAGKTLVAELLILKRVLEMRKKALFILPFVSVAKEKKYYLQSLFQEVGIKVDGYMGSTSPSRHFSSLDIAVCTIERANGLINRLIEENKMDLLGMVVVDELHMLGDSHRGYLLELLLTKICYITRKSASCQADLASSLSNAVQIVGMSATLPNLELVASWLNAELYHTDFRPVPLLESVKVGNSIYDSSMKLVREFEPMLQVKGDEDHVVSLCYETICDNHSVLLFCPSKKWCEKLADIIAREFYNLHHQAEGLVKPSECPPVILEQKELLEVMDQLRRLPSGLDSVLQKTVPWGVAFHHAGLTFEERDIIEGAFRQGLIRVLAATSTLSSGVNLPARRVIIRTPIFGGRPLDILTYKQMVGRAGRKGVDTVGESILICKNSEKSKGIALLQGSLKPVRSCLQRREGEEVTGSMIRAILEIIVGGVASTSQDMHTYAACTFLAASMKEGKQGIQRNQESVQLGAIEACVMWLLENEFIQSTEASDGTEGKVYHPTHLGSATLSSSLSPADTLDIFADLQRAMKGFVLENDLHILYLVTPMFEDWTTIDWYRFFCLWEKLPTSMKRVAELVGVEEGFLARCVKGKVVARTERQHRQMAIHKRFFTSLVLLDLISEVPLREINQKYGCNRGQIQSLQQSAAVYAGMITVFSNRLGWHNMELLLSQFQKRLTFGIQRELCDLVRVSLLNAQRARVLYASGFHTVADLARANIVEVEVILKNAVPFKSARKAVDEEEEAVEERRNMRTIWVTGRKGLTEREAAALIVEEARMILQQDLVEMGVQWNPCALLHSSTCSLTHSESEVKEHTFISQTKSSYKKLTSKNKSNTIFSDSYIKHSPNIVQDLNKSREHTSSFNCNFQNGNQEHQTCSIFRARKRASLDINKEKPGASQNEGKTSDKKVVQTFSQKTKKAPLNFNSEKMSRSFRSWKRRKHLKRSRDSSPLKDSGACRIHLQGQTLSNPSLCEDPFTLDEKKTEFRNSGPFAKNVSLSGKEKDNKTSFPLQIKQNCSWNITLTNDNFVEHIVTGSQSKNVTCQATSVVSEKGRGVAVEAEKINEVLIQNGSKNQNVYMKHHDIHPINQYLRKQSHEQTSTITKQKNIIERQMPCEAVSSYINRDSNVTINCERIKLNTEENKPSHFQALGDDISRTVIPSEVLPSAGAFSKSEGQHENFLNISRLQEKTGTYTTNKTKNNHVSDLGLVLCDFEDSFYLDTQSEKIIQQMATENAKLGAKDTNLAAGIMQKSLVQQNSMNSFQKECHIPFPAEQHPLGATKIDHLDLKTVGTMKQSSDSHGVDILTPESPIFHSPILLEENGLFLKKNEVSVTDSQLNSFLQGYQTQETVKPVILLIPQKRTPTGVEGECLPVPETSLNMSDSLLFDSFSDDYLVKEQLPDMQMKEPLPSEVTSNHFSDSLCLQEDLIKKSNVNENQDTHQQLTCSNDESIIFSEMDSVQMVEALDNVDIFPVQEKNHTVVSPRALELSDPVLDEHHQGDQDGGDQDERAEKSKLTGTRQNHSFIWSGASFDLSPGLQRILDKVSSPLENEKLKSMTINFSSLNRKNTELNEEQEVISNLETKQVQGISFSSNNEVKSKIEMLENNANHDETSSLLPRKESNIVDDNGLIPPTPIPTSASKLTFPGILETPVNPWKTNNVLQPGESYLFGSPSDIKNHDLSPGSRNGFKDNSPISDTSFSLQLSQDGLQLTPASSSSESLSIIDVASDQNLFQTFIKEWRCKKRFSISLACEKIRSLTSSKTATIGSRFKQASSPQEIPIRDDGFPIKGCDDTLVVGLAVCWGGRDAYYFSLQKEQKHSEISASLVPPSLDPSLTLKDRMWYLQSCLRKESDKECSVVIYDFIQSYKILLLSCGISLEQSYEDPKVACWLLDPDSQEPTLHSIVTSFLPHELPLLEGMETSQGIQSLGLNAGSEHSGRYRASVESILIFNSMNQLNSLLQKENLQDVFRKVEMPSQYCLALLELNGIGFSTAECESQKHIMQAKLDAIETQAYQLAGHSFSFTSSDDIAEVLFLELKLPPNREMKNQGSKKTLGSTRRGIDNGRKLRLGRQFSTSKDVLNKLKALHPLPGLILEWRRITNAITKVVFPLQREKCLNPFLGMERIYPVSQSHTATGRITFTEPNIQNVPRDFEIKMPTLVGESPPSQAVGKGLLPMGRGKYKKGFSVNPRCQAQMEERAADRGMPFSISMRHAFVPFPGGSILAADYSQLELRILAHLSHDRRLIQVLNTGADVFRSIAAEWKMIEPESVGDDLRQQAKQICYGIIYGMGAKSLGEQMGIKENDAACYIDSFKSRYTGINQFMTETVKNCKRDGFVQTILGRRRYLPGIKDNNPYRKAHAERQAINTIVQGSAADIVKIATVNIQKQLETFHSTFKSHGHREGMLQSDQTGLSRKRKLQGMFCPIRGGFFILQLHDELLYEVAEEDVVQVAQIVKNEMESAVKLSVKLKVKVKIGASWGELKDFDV
| SMILES | remaining activity |
| --- | --- |
| CC(=O)Oc1ccccc1C(=O)Nc1ncc([N+](=O)[O-])s1 | 51.8% and 50.6% |
| COc1cccc2c1C(=O)c1c(O)c3c(c(O)c1C2=O)C[C@@](O)(C(=O)CO)C[C@@H]3O[C@H]1C[C@H](N)[C@H](O)[C@H](C)O1 | 96.6% and 95.7% |
| O=C(Nc1noc2ccccc12)c1ccc(F)cc1 | 53.6% and 52% |
| CC(=O)[C@]1(O)Cc2c(O)c3c(c(O)c2[C@@H](O[C@H]2C[C@H](N)[C@H](O)[C@H](C)O2)C1)C(=O)c1ccccc1C3=O | 99.5% and 99.7% and 102% |
| CCOc1ccccc1NC(=O)CSc1ncc(S(=O)(=O)c2ccc(C(C)(C)C)cc2)c(=O)[nH]1 | 71% and 71.7% |

Series 3 — cell line: HaCaT; concentration: 100 µM; time: 18 h
| Compound | viability |
| --- | --- |
| Oc1c(I)cc(Cl)c2cccnc12 | 121% |
| COc1ccc2c(c1)c(CC(=O)OCC(=O)O)c(C)n2C(=O)c1ccc(Cl)cc1 | 97.3% |
| CC(=O)Oc1cc2c(s1)CCN(C(C(=O)C1CC1)c1ccccc1F)C2 (stereo not drawn) | 77.3% |
| CCOC(=O)c1c(CSc2ccccc2)n(C)c2cc(Br)c(O)c(CN(C)C)c12 | 23.9% |
| COc1cc(S(=O)(=O)O)ccc1O | 111% |
| CC(C)NCC(O)c1ccc(O)c(O)c1 (stereo not drawn) | 176% |
| CCCCCCCCCCCCCCCC[N+](C)(C)CCN(Cc1ccc(OC)cc1)c1ncccn1 | 18.3% |
| C[C@H](CCC(=O)NCCS(=O)(=O)O)[C@H]1CC[C@H]2[C@@H]3[C@@H](O)C[C@@H]4C[C@H](O)CC[C@]4(C)[C@H]3CC[C@]12C | 112% |
| CCOC(=O)C1=C(COCCN)NC(C)=C(C(=O)OC)[C@@H]1c1ccccc1Cl | 18.5% |

Series 4 — read-out: enzyme activity; action: inhibitor; concentration: 10 µM
Target: Calcium/calmodulin-dependent protein kinase type II subunit alpha (CAMK2A, Homo sapiens, UniProt Q9UQM7)
UniProt Q9UQM7, sequence (whole entry, looked up): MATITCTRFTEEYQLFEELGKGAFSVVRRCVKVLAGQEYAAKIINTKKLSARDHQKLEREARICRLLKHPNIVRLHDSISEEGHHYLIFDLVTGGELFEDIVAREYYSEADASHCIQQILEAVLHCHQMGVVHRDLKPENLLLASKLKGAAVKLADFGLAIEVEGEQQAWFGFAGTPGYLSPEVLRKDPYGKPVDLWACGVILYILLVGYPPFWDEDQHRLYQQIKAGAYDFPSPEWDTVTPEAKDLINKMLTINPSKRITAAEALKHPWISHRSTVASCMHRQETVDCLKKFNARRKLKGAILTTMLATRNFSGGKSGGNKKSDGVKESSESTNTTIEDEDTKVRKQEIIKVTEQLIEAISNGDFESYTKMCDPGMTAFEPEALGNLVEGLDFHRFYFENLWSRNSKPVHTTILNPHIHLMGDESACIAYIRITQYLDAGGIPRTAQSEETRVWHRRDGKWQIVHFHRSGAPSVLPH
| Compound | inhibition |
| --- | --- |
| CC(C)=CCc1cc2c(cc1O)O[C@H](c1ccc(O)cc1)CC2=O | -9% |
| NC(=O)c1cnc2[nH]ccc2c1N[C@@H]1[C@@H]2CC3C[C@H]1C[C@@](O)(C3)C2 | 1% |
| CC1=CC(=O)CC(C)(C)C1(O)/C=C/C(C)=C\C(=O)O (racemic) | -12% |
| COc1ccc(-c2cc(=O)c3c(O)c(OC)c(O)cc3o2)cc1OC | 4% |
| CC(CN(C)C)CN1c2ccccc2Sc2ccccc21 (stereo not drawn) | 3% |
| CC(C)=CCC[C@](C)(O[C@@H]1O[C@H](CO[C@@H]2OC[C@@H](O)[C@H](O)[C@H]2O)[C@@H](O)[C@H](O)[C@H]1O)[C@H]1CC[C@]2(C)[C@@H]1[C@H](O)C[C@@H]1[C@@]3(C)CC[C@H](O[C@@H]4O[C@H](CO)[C@@H](O)[C@H](O)[C@H]4O[C@@H]4O[C@H](CO)[C@@H](O)[C@H](O)[C@H]4O[C@@H]4OC[C@@H](O)[C@H](O)[C@H]4O)C(C)(C)[C@@H]3CC[C@]12C | -13% |
| OCCc1ccc(O)cc1 | 4% |
| Nc1nc(=O)[nH]cc1F | -5% |

Series 5 — read-out: enzyme activity; action: inhibitor; concentration: 0.5 µM; baseline: control
SMILES: O=c1cc(-c2cccc3c2Sc2ccccc2S3)oc(N2CCOCC2)c1
| target | remaining activity |
| --- | --- |
| Tyrosine-protein kinase TXK (TXK, Homo sapiens, UniProt P42681) | 106% |
| Cyclin-dependent kinase 9, with cyclin K (CDK9, Homo sapiens, UniProt P50750) | 109% |
| Dual specificity protein kinase CLK4 (CLK4, Homo sapiens, UniProt Q9HAZ1) | 101% |
| Ribosomal protein S6 kinase alpha-4 (RPS6KA4, Homo sapiens, UniProt O75676) | 88.1% |
| Dual specificity mitogen-activated protein kinase kinase 1 (MAP2K1, Homo sapiens, UniProt Q02750) | 94.9% |
| Rho-associated protein kinase 1 (ROCK1, Homo sapiens, UniProt Q13464) | 101% |
| RAC-beta serine/threonine-protein kinase (AKT2, Homo sapiens, UniProt P31751) | 96% |
| Mitogen-activated protein kinase 14 (MAPK14, Homo sapiens, UniProt Q16539) | 99.3% |
| Misshapen-like kinase 1 (MINK1, Homo sapiens, UniProt Q8N4C8) | 100% |
| Cyclin-dependent kinase 1, with cyclin A (CDK1, Homo sapiens, UniProt P06493) | 104% |
| Serine/threonine-protein kinase Nek3 (NEK3, Homo sapiens, UniProt P51956) | 102% |
| Serine/threonine-protein kinase MARK2 (MARK2, Homo sapiens, UniProt Q7KZI7) | 86.3% |
| Hepatocyte growth factor receptor (MET, Homo sapiens, UniProt P08581) | 107% |
| Discoidin domain-containing receptor 2 (DDR2, Homo sapiens, UniProt Q16832) | 99.2% |
| Mitogen-activated protein kinase 11 (MAPK11, Homo sapiens, UniProt Q15759) | 102% |
| cGMP-dependent protein kinase 2 (PRKG2, Homo sapiens, UniProt Q13237) | 92.2% |
| Serine/threonine-protein kinase PAK 3 (PAK3, Homo sapiens, UniProt O75914) | 95% |
| Vascular endothelial growth factor receptor 2 (KDR, Homo sapiens, UniProt P35968) | 95.9% |
| MAP/microtubule affinity-regulating kinase 4 (MARK4, Homo sapiens, UniProt Q96L34) | 100% |
| Mitogen-activated protein kinase 1 (MAPK1, Homo sapiens, UniProt P28482) | 100% |
| Calcium/calmodulin-dependent protein kinase type 1B (PNCK, Homo sapiens, UniProt Q6P2M8) | 109% |
| Serine/threonine-protein kinase PLK3 (PLK3, Homo sapiens, UniProt Q9H4B4) | 98.1% |
| G protein-coupled receptor kinase 4 (GRK4, Homo sapiens, UniProt P32298) | 105% |
| Dual specificity protein kinase CLK3 (CLK3, Homo sapiens, UniProt P49761) | 121% |
| Calcium/calmodulin-dependent protein kinase type IV (CAMK4, Homo sapiens, UniProt Q16566) | 94% |

Some of these lines once more (series 3):
| Compound | viability |
| --- | --- |
| COc1ccc2c(c1)c(CC(=O)OCC(=O)O)c(C)n2C(=O)c1ccc(Cl)cc1 | 97.3% |
| CCCCCCCCCCCCCCCC[N+](C)(C)CCN(Cc1ccc(OC)cc1)c1ncccn1 | 18.3% |
| CCOC(=O)c1c(CSc2ccccc2)n(C)c2cc(Br)c(O)c(CN(C)C)c12 | 23.9% |
